Results of several laboratories.
Compare with care: the assays were run in different laboratories. ± marks the error that the study gave.
CSNK2A1: Casein kinase II subunit alpha (CSNK2A1, Homo sapiens, UniProt P68400)
UniProt P68400, sequence (whole entry, looked up): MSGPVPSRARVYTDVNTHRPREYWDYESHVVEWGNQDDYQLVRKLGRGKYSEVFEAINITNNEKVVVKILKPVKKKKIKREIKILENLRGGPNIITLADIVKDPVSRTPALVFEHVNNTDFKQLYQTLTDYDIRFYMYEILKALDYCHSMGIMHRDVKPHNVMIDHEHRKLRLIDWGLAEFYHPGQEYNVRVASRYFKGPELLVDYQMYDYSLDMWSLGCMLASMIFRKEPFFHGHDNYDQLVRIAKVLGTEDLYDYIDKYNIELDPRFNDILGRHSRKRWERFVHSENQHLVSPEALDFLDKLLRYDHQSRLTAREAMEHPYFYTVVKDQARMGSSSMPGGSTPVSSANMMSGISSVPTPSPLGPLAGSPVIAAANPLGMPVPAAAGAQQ
EPHA4: Ephrin type-A receptor 4 (EPHA4, Homo sapiens, UniProt P54764)
UniProt P54764, sequence (whole entry, looked up): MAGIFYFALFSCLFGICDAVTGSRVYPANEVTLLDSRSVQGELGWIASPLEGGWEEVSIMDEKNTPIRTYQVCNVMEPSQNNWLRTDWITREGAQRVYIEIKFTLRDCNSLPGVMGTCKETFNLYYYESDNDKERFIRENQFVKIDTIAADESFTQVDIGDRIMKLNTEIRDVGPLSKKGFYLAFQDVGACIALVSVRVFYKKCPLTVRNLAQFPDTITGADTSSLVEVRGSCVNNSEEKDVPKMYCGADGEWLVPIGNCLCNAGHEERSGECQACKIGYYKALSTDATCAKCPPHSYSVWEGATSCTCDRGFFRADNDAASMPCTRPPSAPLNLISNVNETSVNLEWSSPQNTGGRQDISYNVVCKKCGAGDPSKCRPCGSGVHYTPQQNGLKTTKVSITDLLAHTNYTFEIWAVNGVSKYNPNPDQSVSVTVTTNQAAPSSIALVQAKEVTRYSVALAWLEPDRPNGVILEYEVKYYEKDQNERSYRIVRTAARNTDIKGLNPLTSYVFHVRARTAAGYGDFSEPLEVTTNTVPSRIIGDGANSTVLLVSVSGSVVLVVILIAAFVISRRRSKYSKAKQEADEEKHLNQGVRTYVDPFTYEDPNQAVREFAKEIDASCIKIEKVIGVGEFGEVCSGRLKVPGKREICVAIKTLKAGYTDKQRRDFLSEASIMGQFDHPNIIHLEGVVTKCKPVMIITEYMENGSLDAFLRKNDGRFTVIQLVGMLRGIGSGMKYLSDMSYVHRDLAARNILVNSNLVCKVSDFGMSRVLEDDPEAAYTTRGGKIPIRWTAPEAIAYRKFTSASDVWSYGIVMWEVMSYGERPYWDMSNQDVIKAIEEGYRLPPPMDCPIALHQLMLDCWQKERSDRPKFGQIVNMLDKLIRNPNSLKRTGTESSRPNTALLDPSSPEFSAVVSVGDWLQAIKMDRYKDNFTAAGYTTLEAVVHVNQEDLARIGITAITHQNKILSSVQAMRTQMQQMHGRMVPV
RPS6KA3 C-terminal kinase domain: Ribosomal protein S6 kinase alpha-3, C-terminal kinase domain (RPS6KA3, Homo sapiens, UniProt P51812)
UniProt P51812, sequence (whole entry, looked up): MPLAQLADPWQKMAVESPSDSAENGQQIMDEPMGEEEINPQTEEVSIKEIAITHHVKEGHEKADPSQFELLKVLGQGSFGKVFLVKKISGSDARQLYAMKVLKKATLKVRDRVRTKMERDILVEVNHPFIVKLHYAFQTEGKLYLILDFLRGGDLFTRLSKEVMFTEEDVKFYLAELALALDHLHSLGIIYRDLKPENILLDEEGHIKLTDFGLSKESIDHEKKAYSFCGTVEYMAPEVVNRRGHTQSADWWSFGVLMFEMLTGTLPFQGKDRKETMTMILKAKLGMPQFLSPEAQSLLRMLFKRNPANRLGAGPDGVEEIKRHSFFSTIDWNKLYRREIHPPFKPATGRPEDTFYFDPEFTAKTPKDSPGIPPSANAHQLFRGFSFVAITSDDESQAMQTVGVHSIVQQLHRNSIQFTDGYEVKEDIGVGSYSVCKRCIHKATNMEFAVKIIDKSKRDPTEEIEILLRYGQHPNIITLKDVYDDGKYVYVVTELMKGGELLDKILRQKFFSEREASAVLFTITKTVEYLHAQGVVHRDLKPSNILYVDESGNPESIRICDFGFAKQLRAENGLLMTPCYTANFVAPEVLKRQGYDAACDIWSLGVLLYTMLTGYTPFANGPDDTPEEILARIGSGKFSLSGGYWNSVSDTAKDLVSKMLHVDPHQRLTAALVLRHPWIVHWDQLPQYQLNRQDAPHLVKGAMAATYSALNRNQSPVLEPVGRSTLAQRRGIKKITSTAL
Seed linoleate 13S-lipoxygenase-1: Seed linoleate 13S-lipoxygenase-1 (Glycine max, UniProt P08170)
UniProt P08170, sequence (whole entry, looked up): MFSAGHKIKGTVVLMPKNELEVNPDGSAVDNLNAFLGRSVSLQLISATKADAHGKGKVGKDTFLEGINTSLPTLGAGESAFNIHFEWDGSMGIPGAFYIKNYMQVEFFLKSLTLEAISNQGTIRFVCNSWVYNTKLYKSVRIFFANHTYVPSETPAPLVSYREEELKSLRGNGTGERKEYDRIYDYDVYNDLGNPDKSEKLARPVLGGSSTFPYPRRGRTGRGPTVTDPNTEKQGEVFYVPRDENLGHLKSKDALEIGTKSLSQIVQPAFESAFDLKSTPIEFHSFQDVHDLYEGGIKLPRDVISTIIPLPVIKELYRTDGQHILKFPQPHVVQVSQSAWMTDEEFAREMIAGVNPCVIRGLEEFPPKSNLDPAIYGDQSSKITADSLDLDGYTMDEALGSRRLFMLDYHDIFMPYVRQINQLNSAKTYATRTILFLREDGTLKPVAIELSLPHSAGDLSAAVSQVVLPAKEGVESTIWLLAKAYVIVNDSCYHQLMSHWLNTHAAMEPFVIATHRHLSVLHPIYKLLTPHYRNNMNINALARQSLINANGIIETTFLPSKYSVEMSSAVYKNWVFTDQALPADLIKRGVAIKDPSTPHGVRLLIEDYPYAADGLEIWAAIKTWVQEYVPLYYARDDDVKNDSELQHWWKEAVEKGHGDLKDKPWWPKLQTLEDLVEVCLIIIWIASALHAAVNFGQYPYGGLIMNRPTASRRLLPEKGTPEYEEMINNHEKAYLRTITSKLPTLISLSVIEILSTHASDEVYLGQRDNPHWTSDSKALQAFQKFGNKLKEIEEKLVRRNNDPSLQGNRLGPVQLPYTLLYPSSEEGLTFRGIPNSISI
JAK2: Tyrosine-protein kinase JAK2 (JAK2, Homo sapiens, UniProt O60674)
UniProt O60674, sequence (whole entry, looked up): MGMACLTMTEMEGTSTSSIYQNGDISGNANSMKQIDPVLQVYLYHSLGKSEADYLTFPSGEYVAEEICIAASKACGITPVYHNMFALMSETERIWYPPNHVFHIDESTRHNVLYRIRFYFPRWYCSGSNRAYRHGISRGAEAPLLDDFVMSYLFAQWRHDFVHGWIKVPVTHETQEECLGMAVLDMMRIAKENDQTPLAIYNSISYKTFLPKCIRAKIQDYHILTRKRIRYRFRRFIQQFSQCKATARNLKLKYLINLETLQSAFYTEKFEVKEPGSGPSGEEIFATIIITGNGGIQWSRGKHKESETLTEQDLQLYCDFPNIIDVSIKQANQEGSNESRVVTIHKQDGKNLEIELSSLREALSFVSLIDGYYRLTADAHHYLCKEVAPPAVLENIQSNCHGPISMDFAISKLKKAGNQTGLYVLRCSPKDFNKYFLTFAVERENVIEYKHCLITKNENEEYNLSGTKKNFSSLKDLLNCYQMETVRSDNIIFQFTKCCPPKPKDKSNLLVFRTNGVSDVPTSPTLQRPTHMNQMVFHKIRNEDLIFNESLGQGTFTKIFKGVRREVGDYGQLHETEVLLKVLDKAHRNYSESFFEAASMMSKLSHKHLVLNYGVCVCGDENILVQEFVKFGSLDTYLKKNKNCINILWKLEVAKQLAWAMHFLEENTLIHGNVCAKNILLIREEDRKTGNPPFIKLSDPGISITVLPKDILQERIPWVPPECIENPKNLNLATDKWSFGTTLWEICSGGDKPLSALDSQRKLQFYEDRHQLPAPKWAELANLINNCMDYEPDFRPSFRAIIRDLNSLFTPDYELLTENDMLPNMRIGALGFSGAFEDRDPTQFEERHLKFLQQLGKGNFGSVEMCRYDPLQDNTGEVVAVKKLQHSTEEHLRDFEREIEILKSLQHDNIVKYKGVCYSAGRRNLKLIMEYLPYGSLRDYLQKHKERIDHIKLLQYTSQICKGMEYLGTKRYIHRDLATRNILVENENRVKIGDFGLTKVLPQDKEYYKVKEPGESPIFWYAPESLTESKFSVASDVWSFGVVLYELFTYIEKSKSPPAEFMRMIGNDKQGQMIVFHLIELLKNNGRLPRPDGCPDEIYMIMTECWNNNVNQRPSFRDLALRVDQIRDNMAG
TPR: Trypanothione reductase (TPR, Trypanosoma brucei brucei, UniProt P39051)
UniProt P39051, sequence (whole entry, looked up): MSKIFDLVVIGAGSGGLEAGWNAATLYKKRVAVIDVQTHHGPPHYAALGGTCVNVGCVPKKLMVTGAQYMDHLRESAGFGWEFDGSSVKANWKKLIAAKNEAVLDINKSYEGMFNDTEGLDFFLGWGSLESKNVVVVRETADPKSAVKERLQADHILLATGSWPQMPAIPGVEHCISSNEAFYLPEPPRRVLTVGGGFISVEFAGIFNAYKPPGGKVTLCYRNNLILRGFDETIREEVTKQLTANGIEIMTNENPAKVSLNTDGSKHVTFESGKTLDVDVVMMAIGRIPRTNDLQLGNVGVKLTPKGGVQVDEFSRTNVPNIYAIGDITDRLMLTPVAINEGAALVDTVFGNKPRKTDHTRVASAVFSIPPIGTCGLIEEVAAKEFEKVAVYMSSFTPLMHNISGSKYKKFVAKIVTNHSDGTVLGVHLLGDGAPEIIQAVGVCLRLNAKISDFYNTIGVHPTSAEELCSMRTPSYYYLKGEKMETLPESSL
UniProt Q8DPL8, sequence (whole entry, looked up): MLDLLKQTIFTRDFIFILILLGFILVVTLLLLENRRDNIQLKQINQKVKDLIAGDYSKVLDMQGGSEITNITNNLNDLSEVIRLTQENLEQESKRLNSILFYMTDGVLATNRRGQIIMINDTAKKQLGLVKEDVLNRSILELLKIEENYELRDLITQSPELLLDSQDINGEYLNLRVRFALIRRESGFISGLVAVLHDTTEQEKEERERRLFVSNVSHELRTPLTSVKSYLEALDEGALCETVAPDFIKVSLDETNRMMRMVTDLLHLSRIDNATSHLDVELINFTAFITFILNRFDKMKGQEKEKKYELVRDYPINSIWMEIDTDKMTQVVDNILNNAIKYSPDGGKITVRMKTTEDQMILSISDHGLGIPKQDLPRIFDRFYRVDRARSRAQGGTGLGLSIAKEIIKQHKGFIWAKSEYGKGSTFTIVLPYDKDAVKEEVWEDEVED

SMILES | target | assay | test system | setting | IC50 [µM]
Cc1ccnc(Oc2ccc(-c3c(-c4ccc(NC(=O)C(C)C)cc4)n(C)c4ncnc(N)c34)cc2F)n1 | FGFR2 (Homo sapiens, UniProt P21802) | Caliper mobility shift |  | 30 min preincubation, together with: 100 µM ATP | 2.17
CC1(C)C2CCC3(CC(c4ccccc4)c4c(O)c(C=O)c(O)c(C=O)c4O3)C1C2 (single isomer, unassigned; (+)) | PFKM (Homo sapiens, UniProt P08237) | enzyme activity, inhibitor | HEK293T cell lysate | apparent | 14.4
C[C@@H](c1ccn(Cc2ccc(OC(F)(F)F)cc2)n1)[C@](O)(Cn1cnnn1)c1ccc(F)cc1F | Cytochrome P450 2C9 (CYP2C9, Homo sapiens, UniProt P11712) | enzyme activity, inhibitor | human, liver microsomes |  | 4.08
COc1cc(F)cc(-c2nc3ccc(C(=O)NCCCN(C)C)cc3n2C2CCC2)c1 | ACVR1 (Homo sapiens, UniProt Q04771) | target engagement in cells, BRET |  |  | 10.7
Nc1cc(Oc2ccc(-c3ccccc3)cc2)nn1S(=O)(=O)c1ccc(Oc2ccccc2)cc1 | Genome polyprotein, protease (West Nile virus, UniProt P06935) | enzyme activity, inhibitor, fluorescence |  | with preincubation | 8.4
N#CC(=C1C=CC(=NO)C=C1)c1ccccc1 (mixture of isomers) | CSNK2A1 | enzyme activity, inhibitor, radiometric |  |  | 86.8
CCCN(CCC)c1[nH]cnc2ncnc1-2 | Sensor histidine protein kinase/phosphatase WalK (walK, Streptococcus pneumoniae, UniProt Q8DPL8) | enzyme activity, ATP-competitive inhibitor |  |  | 372
CC(C)C[C@H](NC(=O)[C@@H](Cc1c[nH]c2ccccc12)NC(=O)[C@H](Cc1ccc(O)cc1)NC(=O)[C@H](CO)NC(=O)[C@H](Cc1c[nH]c2ccccc12)NC(=O)[C@H](Cc1c[nH]cn1)NC(=O)[C@@H]1CCC(=O)N1)C(=O)N[C@@H](CCCNC(=N)N)C(=O)N1CCC[C@H]1C(=O)NCC(N)=O | Gonadotropin-releasing hormone receptor (Rattus norvegicus, UniProt P30969) | ligand displacement in cells, radioligand |  |  | 0.0005
CNC(=O)C1CCN(c2ccccc2NC(=O)c2ccc(-c3ccccc3C)c(C)c2)CC1 | EPHA4 | target engagement in cells, BRET |  |  | 3.86
CN1C[C@H](c2cccc(C(F)(F)F)c2)[C@@H](C(=O)Nc2ccccc2F)C1=O | PYRD (Oryza sativa, UniProt Q7XKC8) | enzyme activity, inhibitor, absorbance |  |  | 0.021
COc1cc(Cc2c[nH]c3ncc(C(F)(F)F)cc23)cc(OC)c1 | FGFR4 (Homo sapiens, UniProt P22455) | enzyme activity, inhibitor |  |  | 0.712
O=C(O)c1ccc(-n2[nH]cc(-c3cccnc3)c2=O)nc1 | EGLN2 (Homo sapiens, UniProt Q96KS0) | enzyme activity, inhibitor, europium VBC binding |  | 10 µM FeSO4, 2 mM ascorbate, together with: 20 µM 2-oxoglutarate | 0.49
N#C/C(=C\c1cc(Cn2cncn2)cs1)C(N)=O | RPS6KA3 C-terminal kinase domain | enzyme activity, inhibitor |  | 10 mM reduced glutathione, together with: 0.1 mM ATP, peptide substrate | 50.4
COc1cc(OC)c(C(=O)/C=C/c2cccc(OC)c2OC)c(OC)c1 | Seed linoleate 13S-lipoxygenase-1 | enzyme activity, inhibitor, absorbance |  |  | 116
CCn1c(SC(C)C(=O)Nc2ccc(C)cc2C)nnc1C1CCN(C(=O)Nc2ccccc2)CC1 (centres unmarked) | Seed linoleate 13S-lipoxygenase-1 | enzyme activity, inhibitor |  |  | 21.6
O=c1c(O)c(-c2ccc(O)cc2O)oc2cc(O)cc(O)c12 | CD38 (Homo sapiens, UniProt P28907) | cyclase activity, fluorometric |  | together with: NGD+ substrate | 35.4 ± 7.6
CCC(CSCC(NC(=O)CCC(N)C(=O)O)C(=O)NCC(=O)O)C(=O)c1ccc(OCC(=O)NCCCCNC(=O)COc2ccc(C(=O)C(CC)CSCC(NC(=O)CCC(N)C(=O)O)C(=O)NCC(=O)O)c(Cl)c2Cl)c(Cl)c1Cl (centres unmarked) | Glutathione S-transferase Mu 2 (Homo sapiens, UniProt P28161) | enzyme activity, inhibitor, CDNB-GSH conjugation |  | preincubation 2.0 min with enzyme, together with: CDNB, GSH | ~0.0075
CC(=O)NCCN(CC(=O)NCCN(CC(=O)NCCN(CC(=O)NCCC(N)=O)C(=O)C[C@@H](N)CCCNC(=N)N)C(=O)C[C@@H](N)CCCCN)C(=O)C[C@@H](N)Cc1ccccc1 | HIV-1 TAR RNA | Tat/TAR complex displacement, FRET |  | room temperature, together with: 10 nM Tat/TAR complex | 1.5 ± 0.6

SMILES | target | assay | test system | setting | IC50 [µM]
CNC(=O)C1CCN(c2cc(C)ccc2NC(=O)c2ccc(-c3cc(O)ccc3C)c(C)c2)CC1 | YES1 (Homo sapiens, UniProt P07947) | target engagement in cells, BRET |  |  | 9.4
Nc1ncc(-c2cnn(C3CCNCC3)c2)cc1-c1nc2ccc(O)c(Oc3cnccn3)c2o1 | JAK2 | enzyme activity, inhibitor, TR-FRET |  |  | 1.1
Cc1ccc(-c2cc(C(=O)NCCCn3ccnc3)c3cc(Br)ccc3n2)o1 | TPR | inhibitor, DTNB-coupled colourimetric |  | together with: substrate at Km | 5.1
COc1cc2ncnc(Nc3ccc(Oc4ccccc4)cc3C)c2cc1OC | RAF1 (Homo sapiens, UniProt P04049, Y340D/Y341D) | inhibitor, ATP-biotin probe competition |  |  | > 10
C=C(NC(=O)C(=C)NC(=O)c1csc(C2=NC3c4csc(n4)C4NC(=O)c5csc(n5)C(C(C)(O)C(C)O)NC(=O)C5CSC(=N5)C(=CC)NC(=O)C(C(C)O)NC(=O)c5csc(n5)C3(CC2)NC(=O)C(CCC(N)=O)NC(=O)C(=C)NC(=O)C(C)NC(=O)C(C(C)CC)NC2C=Cc3c(C(C)O)cc(nc3C2O)C(=O)OC4C)n1)C(N)=O (centres unmarked) | Proteasome subunit beta type-7, in 20S proteasome (PSMB7, Homo sapiens, UniProt Q99436) | trypsin-like activity, inhibitor | purified 20S proteasome | 15 min preincubation, 37 °C, together with: Boc-Leu-Arg-Arg-AMC substrate | > 10.7
COc1ccc(C(=O)/C=C(\O)C(F)(F)C(F)(F)F)cn1 | Formate-nitrite transporter (FNT, Plasmodium ovale, UniProt A0A1D3TGZ2) | L-lactate transport, inhibitor | yeast | pH 6.8, together with: 14C-L-lactate 1 mM | 0.64 ± 0.12
COc1cccc2[nH]cc(-c3nc4ccccc4[nH]c3=O)c12 | JAK2 | enzyme activity, inhibitor, ADP detection |  |  | 0.0198
CNC(=O)C1CCN(c2ccccc2NC(=O)c2ccc(-c3cc(O)ccc3C)c(C)c2)CC1 | EPHA4 | target engagement in cells, BRET |  |  | 0.0056
O=P(O)(O)OC[C@H]1O[C@@](O)(C(F)(F)F)[C@H](O)[C@@H](O)[C@@H]1O | pgmB (Lactococcus lactis, UniProt P71447) | enzyme activity, inhibitor |  | pH 7.2, 25 °C, together with: beta-glucose 1-phosphate 10 µM | 621 ± 82
CC[C@H](C)[C@@H]1NC(=O)[C@H](Cc2ccc(O)cc2)NC(=O)[C@H](CC(N)=O)NC(=O)[C@H](CCC(N)=O)NC(=O)[C@@H]2CSSC[C@@H]3NC(=O)[C@H](CCC(=O)O)NC(=O)[C@H](Cc4c[nH]c5ccccc45)NC(=O)[C@@H]4CCCN4C(=O)[C@@H]4CCCN4C(=O)[C@@H]4CCCN4C(=O)[C@H](CCC(N)=O)NC(=O)[C@H](CC(C)C)NC(=O)[C@H](CCC(=O)O)NC(=O)[C@H](Cc4ccccc4)NC(=O)[C@H](CO)NC(=O)[C@H](Cc4ccc(O)cc4)NC(=O)[C@H](CO)NC(=O)CNC(=O)[C@H](CCCNC(=N)N)NC(=O)CNC(=O)[C@H](Cc4ccccc4)NC(=O)[C@H](CSSC[C@@H](C(=O)O)NC(=O)[C@H](CCC(N)=O)NC(=O)[C@H](Cc4ccc(O)cc4)NC3=O)NC(=O)[C@H](CSSC[C@H](NC(=O)[C@H](Cc3ccccc3)NC(=O)[C@H](C)N)C(=O)N[C@@H](Cc3ccc(O)cc3)C(=O)N[C@@H](CO)C(=O)N[C@@H](CC(=O)O)C(=O)N[C@@H](CCCNC(=N)N)C(=O)N[C@@H](Cc3ccccc3)C(=O)N2)NC(=O)[C@H](CC(=O)O)NC(=O)[C@@H]2CCCN2C(=O)[C@H]([C@@H](C)CC)NC(=O)[C@H](CO)NC(=O)CNC1=O | TDP1 (Homo sapiens, UniProt Q9NUW8) | enzyme activity, inhibitor, FRET |  | pH 7.4 | > 10
CCn1c(-c2cc(NC(=O)c3cnccn3)n[nH]2)cc2ccccc21 | CSNK2A1 | enzyme activity, inhibitor, ADP detection |  |  | 49
CC(C)CCn1c(OC2CCN(C(=O)C3CC3)CC2)nc2c1c(=O)n(C)c(=O)n2C | ALDH2 (Homo sapiens, UniProt P05091) | enzyme activity, inhibitor |  |  | 2.4
Brc1ccc(NCc2cn(-c3ccccc3)nc2-c2ccc(OCc3ccccc3)cc2)cc1 | PTGS1 (Homo sapiens, UniProt P23219) | enzyme activity, inhibitor, absorbance |  |  | 125
Cc1ccc(-c2cc(C(=O)NCc3ccc(S(N)(=O)=O)cc3)c3cc(Br)ccc3n2)o1 | TPR | inhibitor, DTNB-coupled colourimetric |  | together with: substrate at Km | 8.4
c1ccc(Cn2nnc3c(SC4=NCCO4)ncnc32)cc1 | NADPH oxidase 4 (NOX4, Homo sapiens, UniProt Q9NPH5) | enzyme activity, inhibitor, fluorescence |  |  | 31.9
Cn1c(=O)n(C)c2cc(/C=C(\C#N)C(N)=O)ccc21 | RPS6KA3 C-terminal kinase domain | enzyme activity, inhibitor |  | 10 mM reduced glutathione, together with: 0.1 mM ATP, peptide substrate | 6
Cc1cc(NC(=O)c2cccc(-n3cc(NC(=O)Nc4ccccc4)cn3)c2)ccn1 | MAPK14 (Homo sapiens, UniProt Q16539) | enzyme activity, inhibitor |  |  | > 10
